Measurements collected from several papers.
Each line is one published result; not all experiments were run side by side. “And” joins repeats or separate records; there may be more than shown.
Target: RAC-beta serine/threonine-protein kinase (AKT2, Homo sapiens, UniProt P31751)

Cc1nc2c(F)cc(-c3nc(Nc4ccc(CNC(=O)CCCCCCC(=O)NO)cc4)ncc3F)cc2n1C(C)C  inhibition (enzyme activity, inhibitor; 1 µM): 31%
CNC(=O)C[C@H](Cc1ccc(C#N)cc1)NC(=O)c1cc(-c2ccc(CN[C@H](C)c3ccc(C)cc3)o2)ccc1Cl  activity vs control (enzyme activity, inhibitor; 1 µM): 95%
N[C@H]1CC[C@H](Nc2nccc(-c3cccnc3Oc3ccc(NC(=O)NC4CC4)c4ccccc34)n2)CC1  log2 LFQ intensity (kinobead competition pulldown; HEK293/HCT116 lysate mixture; 10 µM, 1 h, 4 °C; lower = stronger competition): 21.6 and 21.7 and 22.2
Cc1ccc(C)c(-c2ccc3nc(NC(=O)C4CCCCC4)nn3c2)c1  activity vs control (enzyme activity, inhibitor; 10 µM): 59%
COc1cc(Nc2nc(C)cc(-c3cnn4nc(OC)ccc34)n2)cc(C(F)(F)F)c1  remaining activity (inhibitor; 1 µM; relative to: control): 100%
C=CC(=O)Nc1cccc(-c2cnc3[nH]cc(C(=O)NC(C)(C)C)c3n2)c1  inhibition (kinase activity; 0.1 µM): 3%
CNC1C[S+]2CC[S+]3CC[S+](C1)[Ru-4]321([N]=C=S)[n]2c3ccc(OC)cc3c3c4c(c5cc(F)c[n+]1c5c32)C(=O)NC4=O (stereo not shown)  remaining binding (KinomeScan; 0.1 µM; relative to: untreated): 100%
NC(=O)[C@@H](O)C[C@H]1CCc2sc3ncnc(O[C@H]4CC[C@H](N5CCOCC5)CC4)c3c21  inhibition (enzyme activity, inhibitor; 10 µM): 7%
Nc1nc(Nc2ccccc2)sc1C(=O)c1ccccc1  remaining activity (enzyme activity, inhibitor; 10 µM): 70%
COc1ccc(NC(=O)Nc2ccc3c(c2)C(=O)N(C(C)CO)CC(C)C(CN(C)Cc2ccc4c(c2)OCO4)O3)cc1 (stereo not shown)  remaining binding (binding, competition with immobilised ligand; 10 µM): 80%
O=C(Cc1ccc(OCc2ccccc2)cc1)NC1(C(=O)O)CCN(C(=O)c2ccc(-c3cccc(Cl)c3)cc2)CC1  activity vs control (enzyme activity, inhibitor; 10 µM): 108%
CNS(=O)(=O)Nc1nccc(Cc2c(C)c3ccc(Oc4ncccc4F)cc3oc2=O)c1F  remaining binding (binding, competition with immobilised ligand; 10 µM): 100%
COCC12C(=O)NC3C4(C(OC)CC1O)C1CC5(O)C(OC)C(O)C(OC(C)=O)(C1C5OC(=O)c1ccccc1)C3(O)C(OC)C24 (stereo not shown)  remaining activity (kinase activity, inhibitor, ProQinase kinase profiling; 25 µM; relative to: control): 118% and 96%
Cc1cccc(O[C@H]2CCC[C@@H](C(C)CNCc3ccncc3)C2)c1 (relative stereo)  inhibition (enzyme activity, inhibitor; 10 µM): -11%
C=CC(=O)N1Cc2nc(-c3cc(-c4cc(Cl)cnc4Cl)c(F)cc3F)n(-c3ccncn3)c2C1  inhibition (cell-free assay, inhibitor; 1 µM): 6.6%
CC(C)=CC1OC(C)(C)C2C=C3C(=O)C(Cl)=CC(O)C3C3C(O)C4OC4C(=O)C132 (stereo not shown)  remaining binding (cell-free assay, competition with immobilised ligand; 10 µM): 100%
CCn1cc(C(=O)O)c(=O)c2c(N)c(F)c(NC3CCCCC3)cc21  inhibition (kinase activity; 0.1 µM, together with: ATP at Km): -1.7%
Cc1cccc(-c2ccc3nc(NC(=O)C4CCCCC4)nn3c2)c1  activity vs control (enzyme activity, inhibitor; 10 µM): 75%
CN1CCN(Cc2ccc(-c3ccc(CO[C@H]4CCC[C@@H]4NC(=O)c4cc(-c5cnn(C)c5)cnc4N)cc3)cc2)CC1  inhibition (enzyme activity, inhibitor; 0.1 µM): -8%
Nc1ncc2c(n1)-c1c([nH]c3ccc(C4=CCOCC4)cc13)CCC2  remaining binding (binding, competition with immobilised ligand; 1 µM): 100%
COc1ccc(C(=O)/C=C/c2ccccc2-c2c[nH]c3ccc(C#N)cc23)c(O)c1  inhibition (enzyme activity, inhibitor; 20 µM): -13%
CN1CCN(Cc2ccc(NC(=O)c3cccc(C#Cc4cnc(N)c5ncccc45)c3)cc2C(F)(F)F)CC1  remaining binding (cell-free assay, competition with immobilised ligand; 0.5 µM): 84%
